Experimental data from different studies.
Each line is one published result; not all experiments were run side by side. ± marks the error that the study gave. In brackets after ≈: the same amount, converted by molar mass.

| SMILES | test | system | setting | how to read | measurement | result |
| --- | --- | --- | --- | --- | --- | --- |
| CC[C@H](C)[C@H](NC(=O)[C@H](CC(C)C)NC(=O)[C@H](Cc1c[nH]c2ccccc12)NC(=O)[C@H](CCC(N)=O)NC(=O)[C@@H](NC(=O)[C@H](Cc1ccccc1)NC(=O)[C@H](C)NC(=O)[C@H](CCCCNC(=O)COCCOCCNC(=O)COCCOCCNC(=O)CC[C@H](NC(=O)CCCCCCCCCCCCCCCCCCC(=O)O)C(=O)O)NC(=O)[C@H](CCC(N)=O)NC(=O)[C@H](C)NC(=O)[C@@H](NC(=O)[C@H](CCCCN)NC(=O)[C@H](CC(=O)O)NC(=O)[C@H](CC(C)C)NC(=O)C(C)(C)NC(=O)[C@@H](NC(=O)[C@H](CO)NC(=O)[C@H](Cc1ccc(O)cc1)NC(=O)[C@H](CC(=O)O)NC(=O)[C@H](CO)NC(=O)[C@@H](NC(=O)[C@H](Cc1ccccc1)NC(=O)[C@@H](NC(=O)CNC(=O)[C@H](CCC(=O)O)NC(=O)C(C)(C)NC(=O)[C@@H](N)Cc1ccc(O)cc1)[C@@H](C)O)[C@@H](C)O)[C@@H](C)CC)[C@@H](C)CC)C(C)C)C(=O)N[C@@H](C)C(=O)NCC(=O)NCC(=O)N1CCC[C@H]1C(=O)N[C@@H](CO)C(=O)N[C@@H](CO)C(=O)NCC(=O)N[C@@H](C)C(=O)N1CCC[C@H]1C(=O)N1CCC[C@H]1C(=O)N1CCC[C@H]1C(=O)N[C@@H](CO)C(N)=O | – | human, severe renal impairment, plasma | subcutaneous, 5 mg, geometric mean | – | AUC(0-last) | 81200 ng·h/mL |
| CCc1cccc(CC)c1N(COC)C(=O)CCl | LC-MS/MS | herbicide solution | 2 h, 23 °C, added: 254 nm UV exposure | – | remaining amount | 1.51 ± 0.1% |
| CCCCCCCCCCCC[N+](C)(C)Cc1ccccc1 | ultrafiltration | human serum | – | – | unbound fraction in blood | 0.048 |
| Nc1cc(C(F)(F)F)c(-c2cc(N3CCOCC3)nc(N3CCOCC3)n2)cn1 | – | severe hepatic impairment, plasma | oral, 30 mg | baseline: normal hepatic function | unbound AUCinf increase | 52% |
| CCCCCOc1ccc(-c2cc(-c3ccc(C(=O)N[C@H]4C[C@@H](O)[C@@H](O)NC(=O)[C@@H]5[C@@H](O)[C@@H](C)CN5C(=O)[C@H]([C@H](O)CC(N)=O)NC(=O)[C@H]([C@H](O)[C@@H](O)c5ccc(O)c(OS(=O)(=O)O)c5)NC(=O)[C@@H]5C[C@@H](O)CN5C(=O)[C@H]([C@@H](C)O)NC4=O)cc3)no2)cc1 | – | human paediatric patients 2 to 5 years, plasma | intravenous, 4.5 mg/kg once daily, day 7, median | – | Tmax | 1.1 h |
| NC(=O)c1nc(F)c[nH]c1=O | UV-Vis spectrophotometry | supercritical CO2 | 120 min, 328 K, 24 MPa, 801.92 kg/m^3 | – | solubility | 1360 µg/mL (≈ 8.66 mM) |
| O[C@H]1CCCN[C@@H]1CCCn1cnc2c(Cl)c(Cl)ccc21 | – | healthy human volunteers, plasma | oral, 200 mg, day 1, multiple ascending dose | – | Vz/F | 1340 L |
| c1cc2ccc3cccc4ccc(c1)c2c34 | HPLC with fluorescence detection | Wistar rat, male, feces, wet weight | oral, 4 mg/kg, 24 h collection | – | concentration in feces | 96.1 ± 25.8 ppb |
| CC(=O)N[C@H](CCCCNC(=O)C(C)F)C(=O)N[C@@H](CS)C(=O)N[C@@H](CS)C(=O)N[C@@H](CCC(=O)O)C(=O)N[C@@H](Cc1c[nH]cn1)C(=O)N[C@H](Cc1ccccc1)C(=O)N[C@@H](CCCNC(=N)N)C(=O)N[C@@H](Cc1c[nH]c2ccccc12)C(=O)N[C@@H](CS)C(=O)N[C@@H](CCCNC(=N)N)C(=O)N1CCC[C@H]1C(=O)N[C@H](C(N)=O)C(C)C (some centres unmarked) [fluorine-18 labelled] | – | C57BL/6 mice, male, B16-F10 tumour, stomach | intravenous, 1 h | – | tissue uptake | 0.67 ± 0.31 %ID/g |
| CC1(C)S[C@@H]2[C@H](NC(=O)[C@H](C(=O)O)c3ccsc3)C(=O)N2[C@H]1C(=O)O | – | rat plasma | 30 ng/mL, 24 h, room temperature, short-term stability | baseline: nominal concentration | relative error | 1.3% |
| CC(=O)N[C@@H](Cc1c[nH]c2ccccc12)C(=O)N[C@@H](CC(N)=O)C(=O)N1CCC[C@H]1C(=O)N[C@@H](C)C(=O)N[C@H](C(=O)NCC(=O)N[C@@H](CCCCN)C(=O)N[C@@H](Cc1c[nH]c2ccccc12)C(=O)N[C@H](C(=O)NCC(N)=O)[C@@H](C)O)[C@@H](C)O | circular dichroism | phosphate buffer | pH 6.5 | – | Tm | < 0 °C |
| CCN(CC)C(=S)SC | – | human | oral | – | oral clearance (CL/F) | 0.58 L/h |
| CC[C@H](C)[C@H](NC(=O)[C@@H](N)CCCNC(=N)N)C(=O)N[C@H](C(=O)N1CCC[C@H]1C(=O)N[C@@H](C)C(N)=O)C(C)C | – | human, plasma | intravenous, 2 mg/kg, single dose, healthy volunteers | – | Cmax | 5870 ng/mL |
| O=C(NCCS)c1cccc(C(=O)NCCS)c1 | – | male Sprague-Dawley rat, plasma | intravenous, 1 mg/kg, 1 h | – | concentration | 154 ng/mL |
| O=c1[nH]c(Cc2ccccn2)nc2c1cnn2C1CCOCC1 | – | male human, plasma | oral, 2 mg, single dose | – | Cmax | 18.8 nM |
| Clc1ccc(-c2c(Cl)ccc(Cl)c2Cl)c(Cl)c1Cl | – | rat liver microsomes | 50 µM, 30 min, remaining parent PCB | – | enantiomeric fraction | 0.39 |
| O=C(O)CCCc1ccc(N(CCCl)CCCl)cc1 | cytochrome c release, ELISA | BALB/cByJ female mouse liver mitochondria | 30 min | baseline: alamethicin maximal release | EC20 | > 200 µM |
| CC[C@H](C)[C@H](NC(=O)[C@H](CCCNC(=N)N)NC(=O)[C@H](CCCNC(=N)N)NC(=O)c1ccc2c(c1)C(=O)OC21c2ccc(O)cc2Oc2cc(O)ccc21)C(=O)N[C@@H](CCCNC(=N)N)C(=O)N1CCC[C@H]1C(=O)N[C@@H](CCCNC(=N)N)C(=O)N1CCC[C@H]1C(=O)N1CCC[C@H]1C(=O)N[C@@H](CCCNC(=N)N)C(=O)N[C@@H](CC(C)C)C(=O)N1CCC[C@H]1C(=O)N[C@@H](CCCNC(=N)N)C(=O)N1CCC[C@H]1C(=O)N[C@@H](CCCNC(=N)N)C(=O)N1CCC[C@H]1C(=O)N[C@@H](CCCNC(=N)N)C(=O)N1CCC[C@H]1C(=O)N[C@@H](CC(C)C)C(=O)N1CCC[C@H]1C(=O)N[C@@H](Cc1ccccc1)C(=O)N1CCC[C@H]1C(=O)N[C@@H](CCCNC(=N)N)C(=O)N1CCC[C@H]1C(=O)NCC(=O)O | no effect | Sprague-Dawley rat, excised skin | 50 µmol/L, 37 °C, FAM-labelled CPP conjugate | baseline: free FAM | apparent skin permeability | no effect |
| COc1ccc(C[C@@H]2NC(=O)[C@H]([C@@H](C)O)NC(=O)[C@@H]3[C@@H]4CCN3C(=O)[C@@H]3Cc5cn(c6ccc(F)cc56)CCCCCCN(Cc5ccc(cc5)CCNC(=O)[C@]5(C)CCCN5C2=O)C(=O)CCC(=O)N[C@@H](C)C(=O)N[C@H](CNC(=O)CCCCC[N+](C)(C)C)C(=O)N[C@@H](Cc2cccc(c2)CNC(=O)CO4)C(=O)N3)cc1 | – | fasted healthy humans, plasma | oral, 100 mg single dose, with 1800 mg Labrasol, geometric mean | – | Vz/F | 7040 L |
| CN[C@@](C)(C[18F])C(=O)O | – | SCID mouse A549 xenograft, brain | 60 min, post injection | – | tissue uptake | 0.4 ± 0.04 %ID/g |
| CC(C)C(=O)OC[C@H]1O[C@@H](n2ccc(NO)nc2=O)[C@H](O)[C@@H]1O | – | rat brain dialysate | 5 ng/mL, time not given, three freeze-thaw cycles, added: NHC 25 ng/mL | – | remaining compound | 99.8 ± 1.63% |
| [123I]c1cncc(OC[C@@H]2CCN2)c1 | SPECT | human, cingulate gyrus | intravenous bolus plus infusion, 5.2 mCi | baseline: tissue over plasma | tissue/plasma ratio | 23.4 |
| COc1cc(/C=C/C(=O)CC(=O)/C=C/c2ccc(O)c(OC)c2)ccc1O | – | aqueous 0.8% PVA | 12 h, pH 6 | – | solubility | 313.6 ± 1.05 µg/mL (≈ 0.851 mM) |

Repeated from above:
| SMILES | test | system | setting | how to read | measurement | result |
| --- | --- | --- | --- | --- | --- | --- |
| CC[C@H](C)[C@H](NC(=O)[C@H](CC(C)C)NC(=O)[C@H](Cc1c[nH]c2ccccc12)NC(=O)[C@H](CCC(N)=O)NC(=O)[C@@H](NC(=O)[C@H](Cc1ccccc1)NC(=O)[C@H](C)NC(=O)[C@H](CCCCNC(=O)COCCOCCNC(=O)COCCOCCNC(=O)CC[C@H](NC(=O)CCCCCCCCCCCCCCCCCCC(=O)O)C(=O)O)NC(=O)[C@H](CCC(N)=O)NC(=O)[C@H](C)NC(=O)[C@@H](NC(=O)[C@H](CCCCN)NC(=O)[C@H](CC(=O)O)NC(=O)[C@H](CC(C)C)NC(=O)C(C)(C)NC(=O)[C@@H](NC(=O)[C@H](CO)NC(=O)[C@H](Cc1ccc(O)cc1)NC(=O)[C@H](CC(=O)O)NC(=O)[C@H](CO)NC(=O)[C@@H](NC(=O)[C@H](Cc1ccccc1)NC(=O)[C@@H](NC(=O)CNC(=O)[C@H](CCC(=O)O)NC(=O)C(C)(C)NC(=O)[C@@H](N)Cc1ccc(O)cc1)[C@@H](C)O)[C@@H](C)O)[C@@H](C)CC)[C@@H](C)CC)C(C)C)C(=O)N[C@@H](C)C(=O)NCC(=O)NCC(=O)N1CCC[C@H]1C(=O)N[C@@H](CO)C(=O)N[C@@H](CO)C(=O)NCC(=O)N[C@@H](C)C(=O)N1CCC[C@H]1C(=O)N1CCC[C@H]1C(=O)N1CCC[C@H]1C(=O)N[C@@H](CO)C(N)=O | – | human, severe renal impairment, plasma | subcutaneous, 5 mg, geometric mean | – | AUC(0-last) | 81200 ng·h/mL |
| O[C@H]1CCCN[C@@H]1CCCn1cnc2c(Cl)c(Cl)ccc21 | – | healthy human volunteers, plasma | oral, 200 mg, day 1, multiple ascending dose | – | Vz/F | 1340 L |
